# Measured values from different studies.
# Parts stem from different laboratories: compare values within a part only.

# Study 1
# Target: RNA binding protein fox-1 homolog 2, RRM domain, GST-SBP tag (RBFOX2, Homo sapiens, UniProt O43251-10, residues 100-194)
# Method: RNA Bind-n-Seq
# Molecule type: RNA
# Matrix: in vitro
# Concentration: 365 nM
# Notes: natural RNA segment, single round, ends assumed
# Reference: no-protein control
# Direction: higher = stronger binding
# Shared flanks, not repeated: GGGAGUUCUACAGUCCGACGAUC … UGGAAUUCUCGGGUGCCAA
# Target sequence (chain): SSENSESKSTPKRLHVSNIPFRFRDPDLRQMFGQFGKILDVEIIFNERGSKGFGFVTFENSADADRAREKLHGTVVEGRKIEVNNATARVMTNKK
Sequence,RBNS enrichment (R)
AGCAACUUACAGAGGGUAUUUUAGCUCAGUUCAGGUGUGGGGUCCACAGUGCUGAGGAAAUCAUAGUGGCAGAAGGAGGAGGUGACUGGUUACAUCCCGUCCAGUCAGGA,1.04
CCUGUUUGUAUUUAUAAAAAACAUGAACACAGGUCCUAAUAAAGAGAUGCCUAAGGCGGUAACUCUGAUCACCCCGUCCGCUUUGAUGGUGGGGAUACCUGUUGUAUCCU,0.406
GCGCCCCCAAACACACACAACAACAGAGGUUACCCUGUUCUGUCUACUCUACAGUGACUACCUGUGGGCCAGGCCAUCUAAACUGAGAGGGGGAAAGAUUCUACUUCAAA,0.268
UCAUUCCCAGAACCUGGAUGCUAUUACACAUGCUUUUAAGAAACGUCAAUGUAUAUCCUUUUAUAACUCUACCACUUUGGGGCAAGCUAUUCCAGCACUGGUUUUGAAUG,0.426
UUUUUAAAUGUCACUUGAUACUAGAAUGCGAUUUAAAAGCAUGUAAUGCCUCAGGAGUCCGGCAUAUACAACCAAAUUAUCAUGCUCAGGAUCUUCAGAAUUCUAAAGGC,0.904
UGGCGUGAAGUAAUGGCAGUAGAAACCCAUGGACUUCUCUUGUUCUUUCUAUCGCUGUGGAUAAGAGAAUCAGCUACUGUGUUAUUCCUUAUCUGAGCCAAACCCCUUAG,0.426
AUCUUGGUUUGUCAGUUUAUCUUAAGCAUGUCAAUUCAUAAAAACAAGUCAUUUUUGUAUUUUUCAUCUUUAAGAAUGCUUAAAAAAGCUAAUCCCUAAAAUAGUUAGAU,2.01
CGUGGUGGCAUGUCCCUGUAAUCUCAGCUACCCGGGAGGCUCAGGCAGGAGAAUCGCUGGAACCCAGGAGGCAGAGGCUGCCGUUAGCUGAGAUCGUGCUCCUGCACUCC,0.978
UUUGAAAGUAAUUGACAGAAAACUACAAACACGUAGGAUGCCCUGCGCCUCAGCAGCACCCACCCCAGAGCCUCUUGGCAUGCCCAGCUUUCUUUUCAGUACAAGUAUUU,0.91
CCUGGUACUAGUGUAGCGACUUUUUUUCUCCUCUUUCUUCUAGUACAUAUUGAUAGGUAUAACAUAAUUAAGGUUUAAAAAAAAUUAGACAUAGUUAUUCAGAUUUAGGA,0.407
UGGGGCAGCUUCUGGCAUCUUCCCAGGCCCCCUUUCCCAGCCGGGUGUGGAGCUAGGUAGGCUAGGGUCUGUUUCACCAGGAAUCUCUCCUGAGGCCCAGUGGCAGCCUC,0.356
ACUAGUAAGAUCAGAUUUUUGGGUCAUGUCUGUUGUAUUUUCAGUAAUGUGAUUUCAGAUGGUCAUCUGGAUUCUCCCACUUCUCUACUCCAUUAUUUCUCUACUUUUCC,0.742

# Study 2
# Target: PABPC1L2, full length, GST fusion (mouse, UniProt A0ABA7IW68)
# Method: RNAcompete
# Molecule type: RNA
# Matrix: in vitro
# Concentration: 20 nM
# Notes: 7-mer, probes averaged, single round
# Reference: mean of 7-mers
# Direction: higher = stronger binding
# Residues (chain): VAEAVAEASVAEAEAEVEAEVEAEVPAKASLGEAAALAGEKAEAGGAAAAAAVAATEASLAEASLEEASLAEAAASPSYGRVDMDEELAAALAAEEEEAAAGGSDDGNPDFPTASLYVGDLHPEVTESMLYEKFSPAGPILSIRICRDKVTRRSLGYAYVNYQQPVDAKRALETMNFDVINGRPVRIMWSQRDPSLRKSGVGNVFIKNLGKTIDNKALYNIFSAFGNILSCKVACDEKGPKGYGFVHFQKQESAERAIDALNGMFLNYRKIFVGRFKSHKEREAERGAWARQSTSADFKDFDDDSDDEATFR
Sequence,7-mer Z-score
CUAGCUU,-0.344
UCCGCCU,-0.42
CGCACUG,-0.05
GAAGUGU,-0.146
ACGCUAA,-0.119
CAGAAUA,0.137
GAACUCA,-0.103
GCAGUAA,0.254
UCCAUAU,-0.298
GGUGAGA,-0.00833
CCGCUCC,-0.371
AGUCGAG,0.0152
GGUUAAA,0.447
AAGCAAG,0.287
UUUGCCC,-0.554
UUAGUAG,-0.0573
ACGUCGU,-0.329
AUGUUGU,-0.244
GGUGACC,0.0243
UCUCGUG,-0.38
GAGACGA,0.309
ACGGUGC,0.148
GCUCGGG,0.00979
CUGUCAC,-0.204
CAAAGGA,0.354

# Study 3
# Target: TAR DNA-binding protein 43, full length, His tag (TARDBP, Homo sapiens, UniProt Q13148, residues 1-414)
# Method: RNA Bind-n-Seq
# Molecule type: RNA
# Matrix: in vitro
# Concentration: 20 nM
# Notes: 6-mer, flanks averaged, single round
# With: 150 mM LiCl
# Reference: input library
# Direction: higher = stronger binding
Sequence,6-mer enrichment (R)
CAGUUA,0.906
AUUCGG,0.898
GAACUG,0.915
AGGUUC,0.872
CACUCC,0.939
AGACUG,0.921
GCUCAU,0.879
UCUAAA,0.843
AUGCGU,1.14
GGUGGC,1.23
CACGAG,0.861
AAUGGA,0.991

# Study 4
# Target: Sal-like protein 4, full length isoform B (SALL4, Homo sapiens, UniProt Q9UJQ4-2, residues 1-616)
# Method: universal PBM
# Molecule type: double-stranded DNA, one strand shown
# Matrix: in vitro
# Concentration: not given
# Notes: 8-mer, flanks averaged, mean of replicates
# Direction: higher = stronger binding
Sequence,E-score
CAGTTCTA,0.0352
TCAACTAA,0.176
CTGCATGA,-0.157
GTCGTTGA,-0.0243
ATAACTAG,0.31
ACAAATAA,0.294
ATCATCCG,-0.192
GCACACGA,-0.106
GACATCTC,-0.0393
CCTTATCA,0.198
ATACTGCG,0.0236
CCAAACAA,0.0263
CTAGCAGA,-0.101
CAGATTTA,0.205
CATGGGGA,-0.205
AGGTTGCA,0.121
AATTTACG,0.167
AGAGCACT,-0.098
CAATTGAC,0.0614
ACACGACA,0.126
GACTAATA,0.344
GTGCCACA,-0.198
AATGGTAT,0.229
CGCTCTAA,-0.135
CAACCTTC,-0.0337

# Study 5
# Target: RING finger protein unkempt homolog, zinc fingers 1-6, GST-SBP tag (UNK, Homo sapiens, UniProt Q9C0B0, residues 30-357)
# Method: RNA Bind-n-Seq
# Molecule type: RNA
# Matrix: in vitro
# Concentration: not given
# Notes: RNA with constant flanks, human and mouse sites, ends assumed
# Reference: input RNA pool
# Direction: higher = stronger binding
# Shared flanks, not repeated: GGGAGUUCUACAGUCCGACGAUC … CAACAGAGGAUUGAGCAUCA
# Residues (chain): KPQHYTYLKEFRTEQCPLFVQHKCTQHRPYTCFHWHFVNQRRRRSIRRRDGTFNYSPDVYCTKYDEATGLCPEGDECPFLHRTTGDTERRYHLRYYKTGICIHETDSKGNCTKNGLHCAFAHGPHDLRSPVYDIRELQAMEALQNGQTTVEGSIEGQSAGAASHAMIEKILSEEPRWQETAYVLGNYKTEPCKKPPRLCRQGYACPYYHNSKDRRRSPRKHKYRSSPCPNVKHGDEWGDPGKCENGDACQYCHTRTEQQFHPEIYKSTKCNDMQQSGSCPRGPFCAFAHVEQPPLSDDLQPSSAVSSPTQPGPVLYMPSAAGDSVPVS
Sequence,bound/input enrichment
UUUGGAGCCCCUCCUCAUGCUGGUGGAGGCAUUGGAUUGGAACGAGUUACUAUGCUGUUUCUGGGAUUGCAUAAUGUUCGUCAGACCUCCAUGUUCCCUCGUGAUCCCAAACGACUCACU,0.15 ratio
UACAGCUUGCCUUUUUAAUGUUAGUCACAAUGUUUUUGUGGUUUGAAGUUUAGUUUAAUGUUAGUGCAGUGACGGGAAAUACACAUUAUGCUAAUGUUGAUGACAGAAUUUAUUUGGUUG,1.17 ratio
GAGUGCCCUGUGUUUACACCGCCCGGAGGAGAGACGCUGGACCAGGUGAAAAUGCGUGGAAUAGACUUUUUUGAAUUUCUUUGUCAACUAAUCCUGAAAGAAGCGGAUCAAAAAGAACAG,0.431 ratio
CCACUGUCUUCAUUGAGAGAAGCGACUUUAAGGAGGAGUCAGAACCAGGCUAUAAGCGCCUAGCUUCGGGCCAGCCUGUGGGCCUGAGACACACUGGUUAUGUCAUUGAACUGCAGAAUA,0.228 ratio
AGUUCUGUUUAUCCCACAAAGGAUGAGGAGAACAACCCCCUGGAGACAGAGUAUGGCCUGUCUGUCUACAAGGACCAUCAGACCAUCACCAUCCAGGAGAUGCCAGAGAAGGCCCCUGCU,0.0594 ratio
CUUCAGGUUUCUUUCAUUAUGUGUUUGCUGUAAGACUUUGUACAUUUUUGUGCAUAUUGGUAUCAUUUGGCAGUAGGGCUGGAACCAAAGUAUUACUCUCUUUACAAAAUUUUAAUUUAA,2.58 ratio
UGUUUAGAGAAUUAUGGGAAACCUGGUAAGCAAAACUUUCCUCCCAGAUAAUUGCUUCCAAAUUCGAAGAGUUAGUCACCAAGAGAGCCAUAUGUAUGAAAGCGUAUCUGUGAAAGGUAG,1.02 ratio
CUGCACGAGUGCCCCCACAUCCCCACCCCUGUGUGCAUUGGGCACCGGGAUGCACCCUCCUUCUCAUCCCCACCACGCCAGGCUCCUGAGCCAUCCCUCUUCUUCCAGGAUCCCCCUGGA,0.283 ratio
AAGAGAAAGAAGGUUAAGCUGGCUGUCCUGAAAUAUUAUAAGGUGGAUGAGAAUGGCAAAAUUAGUCGCCUUCGUCGAGAGUGCCCUUCUGAUGAAUGUGGUGCUGGGGUGUUUAUGGCA,0.663 ratio
UAUAUCCAGAGCUUCCGAGACCGGCAGACCGGGAGCUCCCUGAGCUCCUUCAUGGCCUCACCCACAGAUGCGGACUAUGAGUAUGGGUCCCGGGGACCUCUGACAGCCUGCUCAGGCCCC,0.189 ratio
UUAGCUGAGGACAAGCCUGGUCCAGGUCCAUUUUCUGAUCAGUCUGAACCUGCAAUAACUACUAGUAGUCCUGUGGCUUUUAACCCAUUUCUCAUCCCAGGAGUAUCUCCUGGACUCAUU,0.272 ratio

# Study 6
# Target: Histone acetyltransferase KAT6A, winged helix 1, GST fusion (KAT6A, Homo sapiens, UniProt Q92794, residues 1-85)
# Method: protein binding microarray
# Molecule type: double-stranded DNA, one strand shown
# Matrix: in vitro
# Concentration: not given
# Notes: 8-mer, flanks averaged, mean of 2 arrays, mostly near background
# Reference: not given
# Direction: higher = stronger binding
# Target sequence (chain): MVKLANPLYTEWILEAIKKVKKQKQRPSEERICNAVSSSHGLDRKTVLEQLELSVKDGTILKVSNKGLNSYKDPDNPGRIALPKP
Sequence,E-score
AGTGAGAC,-0.156
CATTATCC,-0.0172
CTTGACCC,0.0903
CACCAACA,-0.157
ACAAGAAA,-0.0221
CCTCTCCC,-0.127
ATAAGGTA,-0.106
GCATTTGA,0.0473
AAAATCAG,-0.189
ATTGCAAG,-0.251
ATTGATGG,-0.2
CTATGGGA,-0.0649
AATACATA,0.0114
AAAGACGG,0.12
AGATATTG,-0.24
AGATTGGA,-0.353

# Further values, each from its own experiment
Sequence,target,assay,system,scale,measurement,result
STTRRRLFVENDS,human cyclin B1,"cyclin docking binding, deep mutational scanning","peptide, yeast cyclin B1-Cln2 system",direction not given,Cln2-subtracted enrichment score,0.532

# For quick reference, copied from above (study 2):
Sequence,7-mer Z-score
CUAGCUU,-0.344
UCCGCCU,-0.42
CGCACUG,-0.05
GAAGUGU,-0.146
ACGCUAA,-0.119
